Experimental data collected from several papers.
Compare with care: the assays were run in different laboratories. ± marks the error that the study gave.

Structure (SMILES) | target or system | test | test system | setting | how to read | quantity | result
O=C(C[Se]C(=O)c1ccccc1)Nc1cccc(C(F)(F)F)c1 | NCI60 melanoma subpanel | cell growth |  | 10 µM, 48 h, one-dose |  | mean growth percent | -56.5%
O=C1NC2(CC2)COc2ncc(F)cc2[C@H]2COCCN2c2ccn3ncc1c3n2 |  |  | Sprague-Dawley rat, female, serum | oral, 20 mg/kg/day, end of treatment, 4-week subacute toxicity |  | serum total protein | 61.6 ± 2.6 g/L
CSCC[C@H](NC(=O)[C@@H](NC(=O)[C@H](CCC(N)=O)NC(=O)[C@H](CO)NC(=O)[C@@H](N)C(C)C)[C@@H](C)O)C(=O)N[C@@H](CCCNC(=N)N)C(=O)N[C@@H](CCC(N)=O)C(=O)N[C@H](C(=O)N[C@@H](C)C(=O)N[C@H](C(=O)N1CCC[C@H]1C(=O)N[C@@H](CC(C)C)C(=O)N[C@@H](CC(C)C)C(=O)N[C@@H](Cc1c[nH]c2ccccc12)C(=O)N[C@@H](Cc1ccccc1)C(=O)N[C@@H](Cc1c[nH]c2ccccc12)C(=O)N[C@H](C(=O)NCC(=O)N[C@@H](CO)C(=O)N[C@@H](CC(C)C)C(=O)NCCOCCOCCOCCOCCOCCOCCOCCOCCOCCOCCOCCOCCC(=O)N[C@@H](CS)C(N)=O)[C@@H](C)O)C(C)C)[C@@H](C)O | H2126 lung adenocarcinoma | cell binding, phage binding, item: output/input phage |  | 10 min, 37 °C | relative to: control phage | selectivity ratio | 0.91 ± 0.55
CC(C)(C)C(=O)OCOP(=O)(OCOC(=O)C(C)(C)C)C1CCCN(O)C1=O (stereo not shown) | T47D |  |  |  |  | TGI | 17.7 µM
CC[C@H](C)[C@H](NC(=O)[C@H](Cc1c[nH]c2ccccc12)NC(=O)[C@H](CCCCN)NC(=O)[C@H](CO)NC(=O)[C@H](CC(C)C)NC(=O)[C@H](Cc1ccccc1)NC(=O)[C@@H](NC(=O)[C@H](CCCCN)NC(=O)[C@H](CC(C)C)NC(=O)[C@H](CC(C)C)NC(=O)[C@H](CCCCN)NC(=O)[C@@H]1CCCN1)[C@@H](C)O)C(=O)NCC(=O)N[C@@H](CS)C(N)=O | human red blood cells |  |  | pH 7.4 | relative to: Triton X-100 | EC50 | > 100 µM
CC(C)[C@H](NC(=O)[C@H](CCCNC(=N)N)NC(=O)[C@@H]1CCCN1C(=O)[C@@H](NC(=O)[C@H](C)NC(=O)[C@H](Cc1ccc(O)cc1)NC(=O)[C@H](CCC(N)=O)NC(=O)[C@H](CCCCN)NC(=O)[C@H](CCCNC(=N)N)NC(=O)[C@@H]1CCCN1C(=O)[C@H](CCC(=O)O)NC(=O)[C@@H](NC(=O)[C@H](C)N)[C@@H](C)O)[C@@H](C)O)C(=O)N[C@@H](Cc1ccccc1)C(=O)N[C@@H](Cc1c[nH]c2ccccc12)C(=O)N[C@H](C(=O)N[C@@H](CC(=O)O)C(=O)N[C@@H](C)C(=O)N1CCC[C@H]1C(=O)NCC(=O)NCCOCCOCCOCCOCCOCCOCCOCCOCCOCCOCCOCCOCCC(=O)N[C@@H](CS)C(N)=O)[C@@H](C)O | H2882 lung carcinoma | cell binding, phage binding, item: output/input phage |  | 10 min, 37 °C | relative to: control phage | selectivity ratio | 0.91 ± 0.39
CC(C)CC(O)(CC(C)C)c1cn(C(=O)N2CCCC2)nn1 | mouse T-cells | SILAC proteomics, item: FBXO7 |  | 1 nM, 6 h, unit not given | relative to: DMSO | protein level | 1.1
NC(=O)N/N=C/c1ccc(OCc2ccccc2)cc1 | IMR-32 |  |  | 400 µg/mL, 24 h | higher = more activity | catalase activity (OD450) | 0.31 a.u.
COc1ccccc1-c1n[nH]c2nc(NC3CCN(C(=O)Cc4ccc(F)cc4F)CC3)ncc12 |  | bead binding, competition bead pull-down, item: LINJ.36.0190 | Leishmania donovani extract | 10 µM | relative to: vehicle | relative abundance | 0.93
O=C(C[Se]C(=O)c1ccccc1Nc1cccc(C(F)(F)F)c1)Nc1cccc(C(F)(F)F)c1 | NCI60 leukaemia subpanel | NCI60 five-dose screen |  |  |  | CC50 | 10 µM
Cc1cc(C(=O)Nc2nc3cccc(C)c3n2[C@H]2CCCCN(C(=O)/C=C/CN(C)C)C2)ccn1 | Trypanosoma brucei |  | STIB795, mouse acute HAT model | oral, 25 mg/kg once daily for 4 days, day 21 | relative to: mice | survival | 33.3%
Cc1cc(Oc2nc(N3CC[C@@H](c4ccncc4)C3)ncc2F)[nH]n1 | SAOS-2 | cell proliferation | bone cancer |  |  | IC50 | 95.5 µM
COc1ccccc1-c1n[nH]c2nc(N[C@H]3CC[C@H](NS(=O)(=O)CC(C)C)CC3)ncc12 |  | bead binding, competition bead pull-down, item: LINJ.32.0800 | Leishmania donovani extract | 10 µM | relative to: vehicle | relative abundance | 0.09

Excerpt of the above:
Structure (SMILES) | target or system | test | test system | setting | how to read | quantity | result
O=C(C[Se]C(=O)c1ccccc1Nc1cccc(C(F)(F)F)c1)Nc1cccc(C(F)(F)F)c1 | NCI60 leukaemia subpanel | NCI60 five-dose screen |  |  |  | CC50 | 10 µM
